Published values from different studies.
Protocols differ between the studies behind these lines. Several values in a cell are separate wells, animals, samples, runs or records. ± gives the spread as reported.
HTR4: 5-hydroxytryptamine receptor 4 (HTR4, Homo sapiens, UniProt Q13639)
Chain of UniProt Q13639 (whole entry, looked up): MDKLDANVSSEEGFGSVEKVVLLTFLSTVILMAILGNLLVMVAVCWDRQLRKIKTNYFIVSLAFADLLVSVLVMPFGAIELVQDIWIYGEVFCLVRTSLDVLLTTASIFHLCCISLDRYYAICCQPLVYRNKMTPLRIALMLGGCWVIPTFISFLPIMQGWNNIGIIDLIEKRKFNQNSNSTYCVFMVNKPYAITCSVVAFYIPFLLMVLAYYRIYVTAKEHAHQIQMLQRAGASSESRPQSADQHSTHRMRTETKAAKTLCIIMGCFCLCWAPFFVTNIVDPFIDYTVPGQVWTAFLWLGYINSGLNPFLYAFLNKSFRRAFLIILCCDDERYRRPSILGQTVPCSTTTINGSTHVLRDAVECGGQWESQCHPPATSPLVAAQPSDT
HTR1A: 5-hydroxytryptamine receptor 1A (HTR1A, Homo sapiens, UniProt P08908)
Chain of UniProt P08908 (whole entry, looked up): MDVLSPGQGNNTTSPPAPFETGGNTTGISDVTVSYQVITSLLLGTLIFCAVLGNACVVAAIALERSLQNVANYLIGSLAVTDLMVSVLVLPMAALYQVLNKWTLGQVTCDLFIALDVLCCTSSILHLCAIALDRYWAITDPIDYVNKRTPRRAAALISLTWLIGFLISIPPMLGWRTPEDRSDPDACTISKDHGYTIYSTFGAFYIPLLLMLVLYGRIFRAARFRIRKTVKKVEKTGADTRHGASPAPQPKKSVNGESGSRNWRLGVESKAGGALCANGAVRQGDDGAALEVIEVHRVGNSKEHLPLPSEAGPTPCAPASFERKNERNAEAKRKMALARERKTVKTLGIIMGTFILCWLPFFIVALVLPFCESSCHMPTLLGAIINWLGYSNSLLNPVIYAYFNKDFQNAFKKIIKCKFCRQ
MAL12: Alpha-glucosidase MAL12 (MAL12, Saccharomyces cerevisiae S288c, UniProt P53341)
Chain of UniProt P53341 (whole entry, looked up): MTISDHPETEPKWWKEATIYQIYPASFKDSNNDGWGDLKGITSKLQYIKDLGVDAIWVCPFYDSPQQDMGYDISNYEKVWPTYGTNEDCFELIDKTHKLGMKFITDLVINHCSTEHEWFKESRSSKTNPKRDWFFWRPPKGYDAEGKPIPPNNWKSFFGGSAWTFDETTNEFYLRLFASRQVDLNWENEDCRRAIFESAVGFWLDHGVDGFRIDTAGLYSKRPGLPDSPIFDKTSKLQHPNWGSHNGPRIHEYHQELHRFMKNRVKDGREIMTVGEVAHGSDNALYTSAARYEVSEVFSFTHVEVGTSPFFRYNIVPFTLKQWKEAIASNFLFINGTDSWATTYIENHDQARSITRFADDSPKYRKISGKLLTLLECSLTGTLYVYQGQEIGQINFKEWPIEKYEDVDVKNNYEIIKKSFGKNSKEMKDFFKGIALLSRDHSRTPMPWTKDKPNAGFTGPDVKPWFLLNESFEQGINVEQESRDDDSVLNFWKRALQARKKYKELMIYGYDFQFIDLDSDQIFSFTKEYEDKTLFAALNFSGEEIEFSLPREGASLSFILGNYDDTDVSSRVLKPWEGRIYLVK
Urease subunit alpha: Urease subunit alpha (Sporosarcina pasteurii, UniProt P41020)
Chain of UniProt P41020 (whole entry, looked up): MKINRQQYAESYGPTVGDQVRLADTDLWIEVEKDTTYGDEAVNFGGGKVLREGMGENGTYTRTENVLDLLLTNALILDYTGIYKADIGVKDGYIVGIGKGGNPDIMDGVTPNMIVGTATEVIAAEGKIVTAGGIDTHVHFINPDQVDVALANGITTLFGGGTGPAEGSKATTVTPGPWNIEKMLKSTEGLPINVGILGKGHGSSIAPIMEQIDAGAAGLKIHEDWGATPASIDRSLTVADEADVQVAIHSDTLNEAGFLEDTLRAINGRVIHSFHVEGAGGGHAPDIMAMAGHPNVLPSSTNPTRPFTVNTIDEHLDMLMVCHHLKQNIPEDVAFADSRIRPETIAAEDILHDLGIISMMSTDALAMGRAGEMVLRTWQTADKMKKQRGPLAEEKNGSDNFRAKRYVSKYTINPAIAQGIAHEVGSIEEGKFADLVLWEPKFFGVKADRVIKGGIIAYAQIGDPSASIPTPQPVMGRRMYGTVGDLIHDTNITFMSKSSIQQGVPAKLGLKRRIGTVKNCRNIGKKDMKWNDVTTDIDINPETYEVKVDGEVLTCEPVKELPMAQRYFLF
Chain of UniProt O35240 (whole entry, looked up): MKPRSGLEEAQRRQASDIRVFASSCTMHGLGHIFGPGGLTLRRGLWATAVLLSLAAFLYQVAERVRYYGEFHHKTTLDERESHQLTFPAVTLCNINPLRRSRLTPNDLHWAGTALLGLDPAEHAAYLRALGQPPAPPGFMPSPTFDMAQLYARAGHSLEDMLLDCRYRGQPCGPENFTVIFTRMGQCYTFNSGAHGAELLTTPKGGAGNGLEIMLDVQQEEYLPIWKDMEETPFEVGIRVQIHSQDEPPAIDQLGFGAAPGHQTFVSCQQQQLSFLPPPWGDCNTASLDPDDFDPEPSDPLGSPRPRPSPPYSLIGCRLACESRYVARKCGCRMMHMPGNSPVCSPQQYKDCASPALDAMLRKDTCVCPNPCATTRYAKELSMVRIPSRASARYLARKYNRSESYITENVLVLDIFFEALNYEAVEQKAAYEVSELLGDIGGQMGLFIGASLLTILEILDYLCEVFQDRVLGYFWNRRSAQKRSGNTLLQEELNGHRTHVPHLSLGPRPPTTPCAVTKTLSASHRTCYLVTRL
Chain of UniProt Q13131 (whole entry, looked up): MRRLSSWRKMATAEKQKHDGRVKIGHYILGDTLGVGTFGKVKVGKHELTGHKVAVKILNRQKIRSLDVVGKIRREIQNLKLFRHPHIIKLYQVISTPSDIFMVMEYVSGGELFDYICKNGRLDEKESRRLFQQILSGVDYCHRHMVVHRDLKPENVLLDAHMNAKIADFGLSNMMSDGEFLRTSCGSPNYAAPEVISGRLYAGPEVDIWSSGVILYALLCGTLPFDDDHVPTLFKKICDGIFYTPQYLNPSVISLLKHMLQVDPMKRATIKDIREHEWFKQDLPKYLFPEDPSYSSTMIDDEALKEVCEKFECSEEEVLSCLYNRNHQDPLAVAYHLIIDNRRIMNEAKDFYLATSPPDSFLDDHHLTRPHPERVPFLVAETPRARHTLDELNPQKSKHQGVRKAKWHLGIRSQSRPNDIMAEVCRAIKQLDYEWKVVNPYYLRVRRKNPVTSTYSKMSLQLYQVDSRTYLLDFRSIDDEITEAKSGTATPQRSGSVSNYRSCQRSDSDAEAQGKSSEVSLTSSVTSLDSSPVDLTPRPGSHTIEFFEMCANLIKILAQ
Chain of UniProt Q7RTT9 (whole entry, looked up): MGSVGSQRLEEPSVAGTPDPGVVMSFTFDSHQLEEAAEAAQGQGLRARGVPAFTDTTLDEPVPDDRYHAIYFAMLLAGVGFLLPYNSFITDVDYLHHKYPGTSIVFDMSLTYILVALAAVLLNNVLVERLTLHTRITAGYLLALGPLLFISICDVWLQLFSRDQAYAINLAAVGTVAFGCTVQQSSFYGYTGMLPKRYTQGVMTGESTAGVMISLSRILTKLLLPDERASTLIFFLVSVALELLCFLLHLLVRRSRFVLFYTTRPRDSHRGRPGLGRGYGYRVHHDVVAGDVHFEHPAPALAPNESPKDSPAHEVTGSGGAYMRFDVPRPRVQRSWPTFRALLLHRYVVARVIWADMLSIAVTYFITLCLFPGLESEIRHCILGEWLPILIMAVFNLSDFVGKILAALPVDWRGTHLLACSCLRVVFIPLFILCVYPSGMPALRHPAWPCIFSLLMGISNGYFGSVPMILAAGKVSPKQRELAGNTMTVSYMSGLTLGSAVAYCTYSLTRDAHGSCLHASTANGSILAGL
Chain of UniProt Q06187 (whole entry, looked up): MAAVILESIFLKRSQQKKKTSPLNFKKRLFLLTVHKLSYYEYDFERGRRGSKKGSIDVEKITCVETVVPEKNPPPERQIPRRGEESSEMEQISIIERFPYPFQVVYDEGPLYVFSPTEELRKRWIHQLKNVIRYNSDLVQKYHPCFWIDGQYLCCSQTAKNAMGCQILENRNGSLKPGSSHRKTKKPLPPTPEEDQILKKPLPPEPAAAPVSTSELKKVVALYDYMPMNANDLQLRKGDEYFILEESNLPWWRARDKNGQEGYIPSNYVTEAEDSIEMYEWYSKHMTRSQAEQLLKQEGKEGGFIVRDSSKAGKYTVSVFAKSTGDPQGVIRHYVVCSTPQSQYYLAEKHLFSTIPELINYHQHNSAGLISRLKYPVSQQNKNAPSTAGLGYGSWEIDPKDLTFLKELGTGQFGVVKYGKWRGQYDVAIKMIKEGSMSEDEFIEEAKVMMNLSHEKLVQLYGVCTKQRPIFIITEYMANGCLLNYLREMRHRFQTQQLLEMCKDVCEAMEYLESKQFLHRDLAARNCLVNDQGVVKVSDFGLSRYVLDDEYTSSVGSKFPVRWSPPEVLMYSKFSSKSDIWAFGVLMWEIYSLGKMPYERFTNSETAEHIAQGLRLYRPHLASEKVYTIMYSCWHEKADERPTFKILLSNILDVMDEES
Chain of UniProt Q9H3N8 (whole entry, looked up): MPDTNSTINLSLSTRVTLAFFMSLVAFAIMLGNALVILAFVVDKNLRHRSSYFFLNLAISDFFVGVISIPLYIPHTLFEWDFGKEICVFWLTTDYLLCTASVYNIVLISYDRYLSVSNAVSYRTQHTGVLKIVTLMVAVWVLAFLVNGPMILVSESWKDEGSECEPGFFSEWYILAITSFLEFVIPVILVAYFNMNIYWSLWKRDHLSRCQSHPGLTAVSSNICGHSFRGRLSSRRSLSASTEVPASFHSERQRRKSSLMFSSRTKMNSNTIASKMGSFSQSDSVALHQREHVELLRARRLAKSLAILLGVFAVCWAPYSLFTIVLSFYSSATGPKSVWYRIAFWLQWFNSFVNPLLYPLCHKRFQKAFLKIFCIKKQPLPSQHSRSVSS

For `COc1cc2c(cc1OC)C(=O)N(CCCCN1CCN(c3ccccc3OC)CC1)C2`, the inhibition was 4.4% (HTR4; radioligand binding; concentration not given).
`COc1ccc(-c2ccc3c(N4CCOC[C@@H]4C)nc(N4CCOC[C@@H]4C)nc3n2)cc1COC(=O)CCOCCOCCOCCONC(=O)c1ccc(F)c(F)c1Nc1ccc(I)cc1F` — result for inhibition: “inhibited” (Mitogen-activated protein kinase kinase kinase 8 (MAP3K8, Homo sapiens, UniProt P41279); enzyme activity; 2.5 µM).
With `Cn1cc(-c2cnc3ccc(NC(=O)Nc4ccc(F)c(Br)c4)cc3n2)cn1` the inhibition was 7.5% (Inhibitor of nuclear factor kappa-B kinase subunit beta (IKBKB, Homo sapiens, UniProt O14920); kinase binding, KiNativ profiling, item: Lys2 peptide; PANC-1 lysate; 2.5 µM).
`Cc1ccc(OC[C@@H]2CN(CCN3CCc4ccccc43)CCO2)cn1` gave an inhibition of 30.3% (HTR1A; radioligand binding; concentration not given, added: [3H]8-OH-DPAT).
For `CN(C)C1CCN(CC#Cc2nn(C3CCCC3)c3nc(NCc4ccccc4)ncc23)C1` (stereo not drawn), the inhibition was 16% (5'-AMP-activated protein kinase catalytic subunit alpha-1, with beta1, gamma1 (PRKAA1, Homo sapiens, UniProt Q13131); enzyme activity, inhibitor, Z'-LYTE; 1000 nM).
The inhibition of `Cc1cc2c(cc1N1C(=O)c3cccc4c(CCCO)ccc(c34)C1=O)n(C)c(=O)n2C` (racemic) is reported as 91% (Bromodomain testis-specific protein, BD1 (BRDT, Homo sapiens, UniProt Q58F21); binding, BROMOscan binding; 1000 nM).
The inhibition of `COc1ccc(-c2nn(-c3ccc(S(C)(=O)=O)cc3)cc2C=N/N=c2\[nH]c(-c3ccc([N+](=O)[O-])cc3)cs2)cc1` is reported as 95.3% (Epidermal growth factor receptor (EGFR, Homo sapiens, UniProt P00533, L858R); kinase activity, inhibitor; 100 µM).
For `O=c1c(-c2ccc3c(c2)OCO3)coc2c(Cn3ccnc3)c(O)ccc12`, the inhibition was < 0% (MAL12; inhibitor; 25 µM).
The inhibition of `Cc1ccnc(C)c1OC[C@H]1CN(CCN2CCc3ccccc32)CCO1` is reported as 48.6% (HTR4; radioligand binding; concentration not given).
`CCN(Cc1ccccc1C(F)(F)F)C(=O)C1CCN(S(=O)(=O)c2ccc3[nH]ncc3c2)CC1` has an inhibition of 49% (rat sodium channel; radioligand binding; 10 µM, site 2).
The inhibition of `CC[C@@H]1[C@H](F)C(=O)N[C@@H]1COc1nccc2cc(C(N)=O)c(OC)cc12` is reported as 8.7% (5'-AMP-activated protein kinase catalytic subunit alpha-1 (PRKAA1, Homo sapiens, UniProt Q13131); ATP probe binding, KiNativ profiling, item: ATP loop probe site; THP-1 cell lysate; 0.2 mM).
The cell viability of `CC(=O)c1c(C)cc2cc(O)cc(O[C@@H]3O[C@H](CO)[C@@H](O)[C@H](O)[C@H]3O)c2c1O` is reported as 111 ± 6.28% (HepaRG co-cultured with HK-2; MTT; 66.67 µM, 24 h; baseline: untreated control).
`Cc1cc(-c2ccnc3[nH]cc(F)c23)cc(F)c1[C@@]1(O)[C@H](C)CN(C(=O)CN)C[C@@H]1C` has an inhibition of -1.2% (AKT1 and AKT3; ATP probe binding, KiNativ, item: Lys1 site; HEK293T cell lysate; 1 µM).
The inhibition of `CCS(=O)(=O)c1nc(S(=O)(=O)c2ccccc2Cl)c(N2CCN(C)C(=O)[C@H]2C)s1` is reported as 0.06% (Histamine H4 receptor (HRH4, Homo sapiens, UniProt Q9H3N8); 10 µM).
`Fc1ccc(/C=C/C=N/NC(=S)Nc2ccc(Cl)cc2)cc1` gave an inhibition of 82.6% (Urease subunit alpha; enzyme activity, indophenol method; 500 µM).
`Cc1ccc(C(=O)Nc2ccc3ccccc3c2)o1` has an inhibition of 8.18% and 7.64% and 20% and 4.41% and 6.13% (Acid-sensing ion channel 3 (Asic3, Rattus norvegicus, UniProt O35240); ion current, inhibitor, whole-cell patch clamp; 10 µM).
`Clc1cncc(OC[C@H]2CN(CCN3CCc4ccccc43)CCO2)c1` has an inhibition of 13.6% (HTR1A; radioligand binding; concentration not given, added: [3H]8-OH-DPAT).
`C=C1C(=O)O[C@@H]2C[C@@]3(C)CCCC(=C)[C@@H]3C[C@H]12` gave a confluence of 0.35 ± 0.1 (COS-7; 30 µM, 24 h, 0.1% DMSO, unit not given; baseline: vehicle control).
`C[C@@H]1CCO[C@H]2Cn3cc(C(=O)NCc4ccc(F)cc4F)c(=O)c(O)c3C(=O)N12` gave an inhibition of -3.65% (Equilibrative nucleoside transporter 4 (SLC29A4, Homo sapiens, UniProt Q7RTT9); transport; MDCK-II, transfected; 0.1 µM, added: MPP+ 10 µM).
The inhibition of `COc1cc(-c2cc(C(C)=O)n3ccccc23)c(OC)cc1Cn1ccnc1` is reported as 1.32% (Bromodomain testis-specific protein, BD2 (BRDT, Homo sapiens, UniProt Q58F21); 1 µM).
`CN(C(=O)n1cnc(-c2ccc[n+]([O-])c2)c1)C1CCCCC1` gave an inhibition of 8.01% (Substance-K receptor (TACR2, Homo sapiens, UniProt P21452); 10 µM).
With `C[C@H]1c2nn(C)cc2[C@H]2C[C@@H]1N(Cc1ccccc1)C[C@]2(C)O` the inhibition was 22% (Mu-type opioid receptor (Cavia porcellus, UniProt A0ACM8Q262); binding; guinea pig brain; 1 µM, added: [3H]DAMGO).
The inhibition of `COc1ccc2c(c1)C(=O)N(CCN1CCN(c3ccccc3OC)CC1)C2` is reported as 92.4% (HTR1A; radioligand binding; concentration not given, added: [3H]8-OH-DPAT).
`CC[C@H](CO)N(CCN(N=O)[C@H](CC)CO)N=O` — result for “revertant colonies per plate”: 29.3 ± 5 (Salmonella typhimurium; plate incorporation; TA1535, water; 1500 µg/plate, without S9).
`O=C(Nc1cccc2c(=O)cc(-c3nnn[nH]3)oc12)c1ccc(OCCCCc2ccccc2)cc1` gave an inhibition of 80.5% (Volume-regulated anion channel subunit LRRC8C, part LRRC8A IL1 chimera (LRRC8C, Homo sapiens, UniProt Q8TDW0, E6A); ion current, inhibitor, whole-cell patch clamp; HCT116 LRRC8 knockout, transfected; 10 µM, at +100 mV).
The cell viability of `Cc1cc(O)c2c(c1)C(=O)c1cc(O)cc(O)c1C2=O` is reported as 50.1 ± 12.7% (HepaRG co-cultured with HK-2; MTT; 66.67 µM, 24 h; baseline: untreated control).
`COc1ccc(F)cc1C(=O)NCc1ccc(-c2nn([C@@H](C)C(F)(F)F)c(N)c2C(N)=O)cc1` gave an inhibition of 45.4% (Tyrosine-protein kinase BTK (BTK, Homo sapiens, UniProt Q06187); probe binding, competitive chemoproteomics; human PBMCs; 0.01 µM).
For `O=C(CN1CCO[C@H](COc2cccc(Cl)c2)C1)N1CCc2ccccc21`, the inhibition was 72.9% (HTR1A; radioligand binding; concentration not given, added: [3H]8-OH-DPAT).
`Fc1ccc(/C=C/C=N/NC(=S)NCc2ccc(Br)cc2)cc1` has an inhibition of 87% (Urease subunit alpha; enzyme activity, indophenol method; 500 µM).
For `Cc1cc(-c2ccnc3[nH]cc(F)c23)cc(F)c1[C@@]1(O)[C@H](C)CN(C2CCS(=O)(=O)CC2)C[C@@H]1C`, the inhibition was 1.7% (AKT1 and AKT3; ATP probe binding, KiNativ, item: Lys2 site; HEK293T cell lysate; 1 µM).
`c1ccc(OC[C@@H]2CN(CCN3CCc4ccccc43)CCO2)cc1` has an inhibition of 48.2% (D(1B) dopamine receptor (DRD5, Homo sapiens, UniProt P21918); radioligand binding; concentration not given, added: [3H]SCH23390).
The inhibition of `O=C(NO)c1ccc(CN2CCCCc3ccccc32)c(F)c1` is reported as -15.6% (HTR1A; radioligand binding, radioligand displacement; 10 µM, mean of replicates).
`Cc1cccc(C)c1NC(=S)N/N=C/C=C/c1ccc(F)cc1` has an inhibition of 86.3% (Urease subunit alpha; enzyme activity, indophenol method; 500 µM).
`Cc1cc(=O)oc2c(Cn3cccn3)c(O)ccc12` has an inhibition of 35.5% (MAL12; inhibitor; 25 µM).
With `O=C1c2ccccc2CCN1CCCCN1CCN(c2ccccn2)CC1` the inhibition was 101% (HTR1A; radioligand binding; concentration not given, added: [3H]8-OH-DPAT).
For `O=C(Nc1cnc2ccccc2c1)c1cc2[nH]ccc2cc1Cl`, the confluence was 0.94 ± 0.05 (COS-7; 1 µM, 24 h, 0.1% DMSO, unit not given; baseline: vehicle control).

Excerpt of the above:
With `C[C@H]1c2nn(C)cc2[C@H]2C[C@@H]1N(Cc1ccccc1)C[C@]2(C)O` the inhibition was 22% (Mu-type opioid receptor (Cavia porcellus, UniProt A0ACM8Q262); binding; guinea pig brain; 1 µM, added: [3H]DAMGO).
The inhibition of `COc1ccc2c(c1)C(=O)N(CCN1CCN(c3ccccc3OC)CC1)C2` is reported as 92.4% (HTR1A; radioligand binding; concentration not given, added: [3H]8-OH-DPAT).
`CC[C@H](CO)N(CCN(N=O)[C@H](CC)CO)N=O` — result for “revertant colonies per plate”: 29.3 ± 5 (Salmonella typhimurium; plate incorporation; TA1535, water; 1500 µg/plate, without S9).
